Published values of several laboratories.
Every numbered part comes from another study and shows a few of its results, in no order.
UniProt P18825, sequence (whole entry, looked up): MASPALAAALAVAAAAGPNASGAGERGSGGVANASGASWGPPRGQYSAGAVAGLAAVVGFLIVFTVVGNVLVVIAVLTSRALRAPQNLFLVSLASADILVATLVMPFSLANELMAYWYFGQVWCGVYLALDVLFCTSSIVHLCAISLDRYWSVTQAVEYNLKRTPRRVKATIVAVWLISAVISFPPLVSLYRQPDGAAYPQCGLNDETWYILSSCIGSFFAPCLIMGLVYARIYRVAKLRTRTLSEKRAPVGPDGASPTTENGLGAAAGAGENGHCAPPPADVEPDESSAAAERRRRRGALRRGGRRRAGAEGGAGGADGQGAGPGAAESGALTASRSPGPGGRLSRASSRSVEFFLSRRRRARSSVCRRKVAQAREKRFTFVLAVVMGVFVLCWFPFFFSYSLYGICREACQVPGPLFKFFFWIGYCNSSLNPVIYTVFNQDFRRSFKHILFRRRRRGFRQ
UniProt P35367, sequence (whole entry, looked up): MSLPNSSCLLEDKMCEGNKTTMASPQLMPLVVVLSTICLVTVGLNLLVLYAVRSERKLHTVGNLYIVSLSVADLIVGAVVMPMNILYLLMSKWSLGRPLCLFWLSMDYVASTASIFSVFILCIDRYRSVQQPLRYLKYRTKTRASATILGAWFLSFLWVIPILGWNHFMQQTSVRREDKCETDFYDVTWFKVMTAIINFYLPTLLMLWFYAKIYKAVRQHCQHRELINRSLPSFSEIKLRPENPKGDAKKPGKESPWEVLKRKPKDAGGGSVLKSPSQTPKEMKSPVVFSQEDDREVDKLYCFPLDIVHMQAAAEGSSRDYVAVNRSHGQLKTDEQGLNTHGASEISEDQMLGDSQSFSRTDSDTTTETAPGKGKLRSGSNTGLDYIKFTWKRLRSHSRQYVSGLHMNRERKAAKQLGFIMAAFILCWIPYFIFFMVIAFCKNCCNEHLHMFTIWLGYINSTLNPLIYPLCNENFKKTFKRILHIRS
UniProt P34969, sequence (whole entry, looked up): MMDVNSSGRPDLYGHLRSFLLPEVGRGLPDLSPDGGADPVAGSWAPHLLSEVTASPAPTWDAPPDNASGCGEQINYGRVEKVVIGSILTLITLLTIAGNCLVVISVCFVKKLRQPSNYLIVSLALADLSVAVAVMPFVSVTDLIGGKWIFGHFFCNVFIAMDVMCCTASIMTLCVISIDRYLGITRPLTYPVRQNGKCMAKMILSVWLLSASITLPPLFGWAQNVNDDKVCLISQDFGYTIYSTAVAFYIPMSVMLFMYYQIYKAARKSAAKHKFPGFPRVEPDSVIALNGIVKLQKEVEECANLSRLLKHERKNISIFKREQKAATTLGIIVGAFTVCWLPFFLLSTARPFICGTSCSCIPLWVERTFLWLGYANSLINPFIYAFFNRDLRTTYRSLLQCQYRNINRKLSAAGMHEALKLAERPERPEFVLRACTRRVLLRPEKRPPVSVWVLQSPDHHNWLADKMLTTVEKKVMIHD
UniProt P35368, sequence (whole entry, looked up): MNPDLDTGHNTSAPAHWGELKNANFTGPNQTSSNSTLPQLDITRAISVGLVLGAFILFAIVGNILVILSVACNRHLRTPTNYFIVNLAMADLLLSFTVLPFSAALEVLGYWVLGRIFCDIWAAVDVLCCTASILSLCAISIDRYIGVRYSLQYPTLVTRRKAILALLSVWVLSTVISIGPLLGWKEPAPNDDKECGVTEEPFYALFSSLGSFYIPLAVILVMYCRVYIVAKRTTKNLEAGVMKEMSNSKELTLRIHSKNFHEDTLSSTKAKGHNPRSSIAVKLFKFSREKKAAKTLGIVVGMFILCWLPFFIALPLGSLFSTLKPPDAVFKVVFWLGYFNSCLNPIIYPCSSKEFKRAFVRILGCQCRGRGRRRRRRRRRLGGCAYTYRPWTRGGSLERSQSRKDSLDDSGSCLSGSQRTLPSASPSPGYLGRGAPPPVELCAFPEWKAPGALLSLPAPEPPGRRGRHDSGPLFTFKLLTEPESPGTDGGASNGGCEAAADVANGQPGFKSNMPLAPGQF

Set 1 — observed: enzyme activity; action: inhibitor; concentration: 0.5 µM; reference: control
Target: Mitogen-activated protein kinase 13 (MAPK13, Homo sapiens, UniProt O15264)
Residues (O15264 1-365): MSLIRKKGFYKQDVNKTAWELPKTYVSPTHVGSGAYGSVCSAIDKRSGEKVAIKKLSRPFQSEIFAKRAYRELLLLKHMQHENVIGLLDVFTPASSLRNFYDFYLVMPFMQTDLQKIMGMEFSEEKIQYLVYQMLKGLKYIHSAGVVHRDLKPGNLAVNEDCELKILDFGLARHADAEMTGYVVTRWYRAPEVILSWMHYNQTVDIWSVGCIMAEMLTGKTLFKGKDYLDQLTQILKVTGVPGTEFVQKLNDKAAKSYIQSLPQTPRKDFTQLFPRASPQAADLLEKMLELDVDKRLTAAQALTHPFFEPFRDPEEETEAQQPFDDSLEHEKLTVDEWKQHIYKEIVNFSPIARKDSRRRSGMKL
| Structure (SMILES) | remaining activity |
| --- | --- |
| C#Cc1cccc(Nc2ncnc3cc(OCCOC)c(OCCOC)cc23)c1 | 95% |
| Nc1ncnc2n[nH]c(Nc3ccc(F)cc3)c12 | 104% |
| COc1ccc(CNC(=O)Nc2ncc([N+](=O)[O-])s2)cc1 | 91.1% |
| O=C1NC(=O)C(c2cn(CCCO)c3ncccc23)=C1c1cnccn1 | 96.5% |
| Nc1[nH]nc2nc3ccccc3nc12 | 101% |

Set 2 — method: protein binding microarray; molecule type: double-stranded DNA, one strand shown; medium: in vitro; concentration: not given; reference: not given; reading: higher = stronger binding
Target: Histone acetyltransferase KAT6A, both winged helices, GST fusion (KAT6A, Homo sapiens, UniProt Q92794, residues 1-181)
Notes: 8-mer, flanks averaged, mean of 2 arrays, mostly near background
Residues (chain): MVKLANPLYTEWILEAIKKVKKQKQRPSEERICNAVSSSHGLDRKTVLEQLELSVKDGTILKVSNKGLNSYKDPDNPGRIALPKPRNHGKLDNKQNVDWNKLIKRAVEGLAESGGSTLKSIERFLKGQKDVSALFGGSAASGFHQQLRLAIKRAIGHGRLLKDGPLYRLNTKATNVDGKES
| Strand | E-score |
| --- | --- |
| GACTTGCC | -0.0173 |
| CGACACCC | -0.0326 |
| GATTAGGA | -0.0562 |
| AAGATCGG | 0.151 |
| ATAAACAA | -0.0377 |
| AAGATGAG | -0.219 |
| AAGGGCCA | -0.274 |
| ATTTGAAG | -0.0132 |

Set 3 — method: aptamer microarray, sandwich; molecule type: DNA with 2'F-ANA; medium: in vitro; concentration: 200 nM; with: Cy3 exosite-II aptamer, 400 nM; reading: higher = stronger binding; strand: GGTTGGTGTGGTTGG
Target: Prothrombin, mature alpha-thrombin (F2, Homo sapiens, UniProt P00734)
Notes: whole 15-mer aptamer, many near background
| Modification | mean fluorescence intensity |
| --- | --- |
| 2'F-ANA at 1 2 6 7 8 9 10 12 13 | 70.5 a.u. |
| 2'F-ANA at 2 3 4 7 8 12 13 | 821 a.u. |
| 2'F-ANA at 2 3 5 8 12 | 259 a.u. |
| 2'F-ANA at 2 5 7 8 9 10 12 13 | 48.8 a.u. |
| 2'F-ANA at 1 2 7 8 9 11 12 14 15 | 83.3 a.u. |
| 2'F-ANA at 8 12 13 14 | 245 a.u. |
| 2'F-ANA at 1 3 4 5 9 10 11 | 72.5 a.u. |
| 2'F-ANA at 1 8 10 11 13 14 15 | 51.5 a.u. |

Set 4 — observed: cell-free assay; concentration: 10 µM
Compound: C[C@@H](NC(=O)Nc1cc2[nH]ncc2c(CO)n1)c1ccccc1
| target | inhibition |
| --- | --- |
| HRH1 (Homo sapiens, UniProt P35367) | -7.28% |
| ADRA2C (Homo sapiens, UniProt P18825) | -8.07% |
| HTR7 (Homo sapiens, UniProt P34969) | 21.7% |
| ADRA1B (Homo sapiens, UniProt P35368) | -2.72% |

For quick reference, copied from above (set 2):
| Strand | E-score |
| --- | --- |
| GATTAGGA | -0.0562 |
| AAGATCGG | 0.151 |
| ATAAACAA | -0.0377 |
